Published values from different studies.
Each numbered part is a random draw from the data of one study; scales do not carry over between parts.

Set 1 — cell line: HEK-293T; observed: pseudovirus infection; organism: VSV pseudotyped with SARS-CoV-2 spike; concentration: 10 µM; time: 16 h; relative to: vehicle-treated
The GFP-positive cells of `COc1cc2nc(N3CCN(C(=O)C4COc5ccccc5O4)CC3)nc(N)c2cc1OC` (stereo not drawn) is reported as 79%.
With `COc1ccc(C[C@@H]2c3cc(OC)c(OC)cc3CC[N@+]2(C)CCC(=O)OCCCCCOC(=O)CC[N@@+]2(C)CCc3cc(OC)c(OC)cc3[C@H]2Cc2ccc(OC)c(OC)c2)cc1OC` the GFP-positive cells was 85.8%.
`O=P(O)(O)C(O)(Cn1ccnc1)P(=O)(O)O` has a GFP-positive cells of 77.4%.

Set 2 — action: inhibitor; concentration: 20 µM
Target: Replicase polyprotein 1ab, nsp13 helicase (rep, Severe acute respiratory syndrome coronavirus 2, UniProt P0DTD1)
For `Cc1ccsc1/C=C/C1=NCCCN1C`, the inhibition was 0.91%.
`C[N+](C)(C)CCCCCC[N+](C)(C)C` gave an inhibition of 4.22%.
For `O=C1c2cccnc2OC[C@@H]2CCCN12`, the inhibition was 5.38%.
With `CC(C)(C)NCC(O)COc1cccc2c1CCC(=O)N2` (stereo not drawn) the inhibition was 3.04%.
With `CC(=O)O[C@H]1C[C@@H]2CC[C@@H]3[C@H](CC[C@@]4(C)[C@H]3C[C@H]([N+]3(C)CCCCC3)[C@@H]4OC(C)=O)[C@@]2(C)C[C@@H]1[N+]1(C)CCCCC1` the inhibition was 8.91%.
`Oc1c(CN2CCCC2)cc(COCc2ccccc2)c2cccnc12` gave an inhibition of -0.73%.
The inhibition of `Cc1cc(C)nc(SCC(=O)Nc2ncc(Cc3cccc4ccccc34)s2)n1` is reported as -0.38%.
With `O=[N+]([O-])c1ccc2c(c1)S(=O)(=O)C=C2` the inhibition was 18.1%.
`CCc1nc(N)nc(N)c1-c1ccc(Cl)cc1` gave an inhibition of 0.13%.
`O=C1Nc2ccc(Cl)c3c2C1(CCCCN1CC=C(c2ccc(Cl)cc2)CC1)CCC3` (stereo not drawn) gave an inhibition of 4.1%.
`CC(C)(C)NCC(O)COc1cccc2[nH]c(C#N)cc12` (stereo not drawn) has an inhibition of 0.47%.
With `CN(C)c1nc(N)c(C(=O)Nc2cccnc2)nc1Cl` the inhibition was -4.47%.
The inhibition of `CC(C)COC(=O)c1ccc(N)cc1` is reported as 8.04%.
For `O=C1N=C(O)NC1(c1ccccc1)c1ccccc1`, the inhibition was -2.31%.
For `CC(C)(O)CC(=O)O`, the inhibition was 7.37%.
With `COc1ccc(CCN(C)CCCN2CCc3cc(OC)c(OC)cc3CC2=O)cc1OC` the inhibition was 10%.
`CCC(=O)O[C@@H]1CC(=O)O[C@H](C)C/C=C/C=C/[C@H](OC(C)=O)[C@H](C)C[C@H](CC=O)[C@H](O[C@@H]2O[C@H](C)[C@@H](O[C@H]3C[C@@](C)(OC(C)=O)[C@@H](OC(=O)CC)[C@H](C)O3)[C@H](N(C)C)[C@H]2O)[C@H]1OC` has an inhibition of 1.5%.
`Cc1c(NC(=O)c2cc3c(s2)CCCC3)cccc1-c1cn(C)c(=O)c(Nc2ccc([C@@H]3C(=O)N(C)CCN3C)cc2)n1` (racemic) has an inhibition of 2.35%.

Set 3 — observed: enzyme activity; action: inhibitor; concentration: 20 µM; setting: hit confirmation, no DTT
Target: Replicase polyprotein 1ab, main protease (rep, Severe acute respiratory syndrome coronavirus 2, UniProt P0DTD1)
With `S=C=NCc1ccccc1` the inhibition was 76.3%.
The inhibition of `Sc1nnnn1-c1ccccc1` is reported as 110%.
`O=C1C=Cc2cc(Br)ccc2C1=O` has an inhibition of 99.4%.

Set 4 — method: RNA Bind-n-Seq; form: RNA; sample: in vitro; concentration: 200 nM; setting: whole 134-nt RNA, ends assumed; together with: 150 mM KCl; relative to: input library; direction: higher = stronger binding
Target: Ras GTPase-activating protein-binding protein 1, full length (G3BP1, Homo sapiens, UniProt Q13283)
Sequence of UniProt Q13283 (whole entry, looked up): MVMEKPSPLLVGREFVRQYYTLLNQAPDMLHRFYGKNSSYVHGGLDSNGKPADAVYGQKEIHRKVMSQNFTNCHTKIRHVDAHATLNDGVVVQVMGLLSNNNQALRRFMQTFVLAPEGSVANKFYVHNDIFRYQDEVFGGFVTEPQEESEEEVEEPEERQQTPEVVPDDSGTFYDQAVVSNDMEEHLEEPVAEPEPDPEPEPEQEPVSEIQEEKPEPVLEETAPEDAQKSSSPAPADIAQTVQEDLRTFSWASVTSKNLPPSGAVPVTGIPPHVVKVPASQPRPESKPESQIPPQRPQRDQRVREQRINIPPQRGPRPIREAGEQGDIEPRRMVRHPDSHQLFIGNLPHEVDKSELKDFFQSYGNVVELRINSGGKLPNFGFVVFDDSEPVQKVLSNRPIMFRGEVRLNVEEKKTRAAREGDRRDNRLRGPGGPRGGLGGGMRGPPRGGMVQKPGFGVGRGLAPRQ
`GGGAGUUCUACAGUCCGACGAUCCCUCAAGUCCUGUGCUACACAUCGUAUGUACCGAAUCGGGGCCGGCCGGCCGGAAAGUAUUAUGUUACGCCGUUCGGAUCUGCACUUCCAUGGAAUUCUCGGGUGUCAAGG` gave a log2 enrichment of -0.374.
`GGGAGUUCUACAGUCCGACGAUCACCAUGUAGGUGGGCAUCUUUGGGAAGUGGGGCAAGGGGGGGAUAGGGAGGGGGGUAACACUUUGGGAACAGGUGGUCCCAGGUCGUUUCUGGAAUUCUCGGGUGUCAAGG` gave a log2 enrichment of 1.06.
With `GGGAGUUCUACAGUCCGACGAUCACCAUGCAGGUGGGCAUCUUUGGGAAGUGGGGCAAGGGGGGGAUAGGGAGGGGGGUAACACUAAAGGAACAGGUGGUCCCAGGUCGUUUCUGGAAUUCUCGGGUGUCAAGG` the log2 enrichment was 1.57.
`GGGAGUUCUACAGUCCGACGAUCCCUGUGCUACACAUCGUAUGUACCGAAUCGGGGUUUUUUGGGGUUUUUUGGGGUUUUUUGGAAAGUAUUAUGUUACGCCGUUCGGAUCUGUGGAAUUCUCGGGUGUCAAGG` has a log2 enrichment of -0.242.
`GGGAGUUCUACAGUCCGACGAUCAUGUUCUUGAAUACUUAGCAAACAUACCAGCAUCCCAAAGUCACCAAGAUAAACCCUCCUACUCCAACAUCACAUGAUCUUCUAAUUCUAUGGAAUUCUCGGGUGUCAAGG` has a log2 enrichment of -0.0074.
The log2 enrichment of `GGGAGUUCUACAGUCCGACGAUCCUGUGCUACACAUCGUAUGUACCGAAUCAAACCCCCCCAAACCCCCCCAAAUUUUUUUAAAAAAGUAUUAUGUUACGCCGUUCGGAUCUGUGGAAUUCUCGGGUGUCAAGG` is reported as 0.707.
`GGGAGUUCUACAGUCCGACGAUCCCUGUGCUACACAUCGUAUGUACCGAAUCGGCCCCCCCGGGGCCCCCCCGGCCCCCCCGGGAAAGUAUUAUGUUACGCCGUUCGGAUCUGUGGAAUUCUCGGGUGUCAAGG` has a log2 enrichment of -0.358.
`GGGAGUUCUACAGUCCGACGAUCUUACAGAUGUAGAGCUAAAACGACUGAAGGAUGCUUUCAAGAGGACCUGUGGACUCUCAUAUUACAUGGGCCAGCACUGCUUCAUCCGGGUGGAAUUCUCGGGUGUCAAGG` gave a log2 enrichment of 0.335.

Set 5 — method: protein-binding microarray; form: double-stranded DNA, one strand shown; sample: in vitro; concentration: not given; direction: higher = stronger binding
Target: Protein C-ets-1 (ETS1, Homo sapiens, UniProt P14921, residues 1-441, Y397A, full length assumed)
Sequence of UniProt P14921 (whole entry, unmodified, looked up): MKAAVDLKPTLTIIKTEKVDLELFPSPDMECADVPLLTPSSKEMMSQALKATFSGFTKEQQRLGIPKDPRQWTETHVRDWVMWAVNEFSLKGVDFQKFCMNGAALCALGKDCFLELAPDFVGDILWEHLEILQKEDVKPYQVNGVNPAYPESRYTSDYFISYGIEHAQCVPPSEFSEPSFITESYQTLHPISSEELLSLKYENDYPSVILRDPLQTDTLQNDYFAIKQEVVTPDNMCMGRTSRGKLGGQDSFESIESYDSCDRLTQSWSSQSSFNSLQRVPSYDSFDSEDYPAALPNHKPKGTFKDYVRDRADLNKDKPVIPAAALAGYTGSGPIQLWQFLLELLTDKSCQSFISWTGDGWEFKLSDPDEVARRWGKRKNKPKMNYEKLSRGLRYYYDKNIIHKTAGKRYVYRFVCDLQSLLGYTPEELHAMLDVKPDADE
Setting: k-mer, scored over probes, only values ≥0.25
`GTTTGCGA` gave an E-score of 0.313.
`CCTCCCCA` has an E-score of 0.375.
`CGACGGGC` gave an E-score of 0.251.
`TGTTGCAA` has an E-score of 0.269.
With `CAGTGTAC` the E-score was 0.276.

Set 6 — method: RNA Bind-n-Seq; form: RNA; sample: in vitro; concentration: not given; relative to: input RNA pool; direction: higher = stronger binding
Target: RING finger protein unkempt homolog, zinc fingers 1-6, GST-SBP tag (UNK, Homo sapiens, UniProt Q9C0B0, residues 30-357)
Sequence of UniProt Q9C0B0 (30-357, looked up): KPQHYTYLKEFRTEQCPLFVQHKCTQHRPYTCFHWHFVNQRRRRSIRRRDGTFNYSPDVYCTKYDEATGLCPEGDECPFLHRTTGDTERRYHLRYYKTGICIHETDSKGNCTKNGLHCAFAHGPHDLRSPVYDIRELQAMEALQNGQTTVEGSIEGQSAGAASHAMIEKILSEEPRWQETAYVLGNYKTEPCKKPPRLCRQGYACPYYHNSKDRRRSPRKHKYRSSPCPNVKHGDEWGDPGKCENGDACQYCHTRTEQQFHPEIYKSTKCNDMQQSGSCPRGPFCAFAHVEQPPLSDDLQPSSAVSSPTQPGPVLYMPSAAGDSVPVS
Setting: RNA with constant flanks, human and mouse sites, ends assumed
`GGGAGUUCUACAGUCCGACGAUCGGCACCGUCCAAGUGACCUUAUUUAACCCCAACCAGACUGUGGUAAAGAUGUUCCUUGUGACCUUUGACUUCUCGGACAUGCCUGCUGCCCACAUGACCUUCCUGCGCCAUCGCCUCUUUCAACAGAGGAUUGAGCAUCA` has a bound/input enrichment of 0.224 ratio.
For `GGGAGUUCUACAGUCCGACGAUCGAUCCCUUGAUGGCCCCAGAAUCCCAUAUAUUAGCUUCUAACACCAUGGAGACCCAUAUAUUAGCAUCCAACACCAUGGACUCCCAAAUGCUAGCGUCCAACACCAUGGACUCCCAGAUGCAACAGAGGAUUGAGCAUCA`, the bound/input enrichment was 1.77 ratio.
`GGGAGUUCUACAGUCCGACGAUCCUUGCAGUGAGGAAAAGAACAAUUAUUGCUCUUGGCCACCUAGUUAUGAGCUGCGGAAAUAUAGUUUUUGUAGACCUUAUUGAACAUCUGUUGUCAGAGUUGUCCAAAAAUGACUCCAUGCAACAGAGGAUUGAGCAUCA` gave a bound/input enrichment of 0.582 ratio.
With `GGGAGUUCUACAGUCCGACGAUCGAGCUGCAGGAUAUGAUCAACGAAGUGGAUGCUGAUGGCAAUGGCACCAUUGACUUCCCAGAGUUCUUGACUAUGAUGGCUAGAAAAAUGAAAGACACAGAUAGCGAAGAAGAGAUCCGCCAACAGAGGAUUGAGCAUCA` the bound/input enrichment was 0.264 ratio.
For `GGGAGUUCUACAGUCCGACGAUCCCCCUCCCGGCCAGACGCUGGCCAUUGCUGCACCAUGUCGUUUUUUACAACAUUCAGCUUCAGCAUUUUUACUAUUAUAAUAAGAAACUGUCCCUCCAAAUUCAAUAAAAAUUGCUUUUCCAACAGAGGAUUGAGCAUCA`, the bound/input enrichment was 1.35 ratio.
`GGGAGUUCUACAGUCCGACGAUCAGUAUGAUUAAUACAACAGGUGCCGUGGAUUCAGGGUCCUCCUCCUCUUCCUCCUCUUCUAGUUUUGUGAAUGGUGCUACUAGCAAAAACCUUCCAGCUGUACAAACUGUUGCUCCAAUGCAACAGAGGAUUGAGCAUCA` gave a bound/input enrichment of 1.52 ratio.
The bound/input enrichment of `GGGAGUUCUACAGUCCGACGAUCGAAAAUGAGCAGAUACUGAAUGUAAACCCUGCAGAUCCUGAUAACUUAAGUGACUCUCUCUUUUCCGGUGAUGAAGAAAAUGCUGGGACUGAGGAAAUAAAGAAUGAAAUAAAUGGAAAUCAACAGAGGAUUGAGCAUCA` is reported as 0.261 ratio.
The bound/input enrichment of `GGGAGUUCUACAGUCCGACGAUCUCCUGCCCCGACUCUUCUGAACCAGCUGUACAAGUCCAGUUAGAUUUUUCCACACUCACCAGGUCUGUUUAUUCAGAUAGGGGUGAUGAUUCUCCCGAUUCUUCCCCAGAAGAACAGAAACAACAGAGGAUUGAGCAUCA` is reported as 2.27 ratio.

A few entries again (set 4):
The log2 enrichment of `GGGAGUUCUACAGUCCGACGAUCCUGUGCUACACAUCGUAUGUACCGAAUCAAACCCCCCCAAACCCCCCCAAAUUUUUUUAAAAAAGUAUUAUGUUACGCCGUUCGGAUCUGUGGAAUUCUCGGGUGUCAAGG` is reported as 0.707.
`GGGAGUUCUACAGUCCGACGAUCACCAUGUAGGUGGGCAUCUUUGGGAAGUGGGGCAAGGGGGGGAUAGGGAGGGGGGUAACACUUUGGGAACAGGUGGUCCCAGGUCGUUUCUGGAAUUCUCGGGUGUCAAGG` gave a log2 enrichment of 1.06.
`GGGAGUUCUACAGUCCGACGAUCAUGUUCUUGAAUACUUAGCAAACAUACCAGCAUCCCAAAGUCACCAAGAUAAACCCUCCUACUCCAACAUCACAUGAUCUUCUAAUUCUAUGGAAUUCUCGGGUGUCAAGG` has a log2 enrichment of -0.0074.
With `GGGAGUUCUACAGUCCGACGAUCACCAUGCAGGUGGGCAUCUUUGGGAAGUGGGGCAAGGGGGGGAUAGGGAGGGGGGUAACACUAAAGGAACAGGUGGUCCCAGGUCGUUUCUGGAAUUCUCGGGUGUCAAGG` the log2 enrichment was 1.57.
`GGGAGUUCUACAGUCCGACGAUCCCUGUGCUACACAUCGUAUGUACCGAAUCGGCCCCCCCGGGGCCCCCCCGGCCCCCCCGGGAAAGUAUUAUGUUACGCCGUUCGGAUCUGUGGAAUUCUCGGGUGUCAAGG` has a log2 enrichment of -0.358.
`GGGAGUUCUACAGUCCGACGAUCUUACAGAUGUAGAGCUAAAACGACUGAAGGAUGCUUUCAAGAGGACCUGUGGACUCUCAUAUUACAUGGGCCAGCACUGCUUCAUCCGGGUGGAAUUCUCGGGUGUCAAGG` gave a log2 enrichment of 0.335.
`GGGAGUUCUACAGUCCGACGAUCCCUCAAGUCCUGUGCUACACAUCGUAUGUACCGAAUCGGGGCCGGCCGGCCGGAAAGUAUUAUGUUACGCCGUUCGGAUCUGCACUUCCAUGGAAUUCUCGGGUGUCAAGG` gave a log2 enrichment of -0.374.
